Experimental data of several laboratories.
Several values in a cell are separate wells, animals, samples, runs or records. ± gives the spread as reported.
SPT15 full length assumed: SPT15 full length assumed (Saccharomyces cerevisiae, UniProt P13393)
Sequence of UniProt P13393 (whole entry, looked up): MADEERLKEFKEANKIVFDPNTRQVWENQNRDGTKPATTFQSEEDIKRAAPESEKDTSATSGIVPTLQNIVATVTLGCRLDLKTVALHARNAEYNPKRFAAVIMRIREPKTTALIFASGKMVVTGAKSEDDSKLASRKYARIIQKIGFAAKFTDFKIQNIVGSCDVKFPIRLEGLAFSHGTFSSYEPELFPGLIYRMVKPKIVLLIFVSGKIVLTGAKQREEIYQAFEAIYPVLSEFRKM
U2AF2: U2AF2 148-342 (Homo sapiens, UniProt P26368)
Sequence of UniProt P26368 (whole entry, looked up): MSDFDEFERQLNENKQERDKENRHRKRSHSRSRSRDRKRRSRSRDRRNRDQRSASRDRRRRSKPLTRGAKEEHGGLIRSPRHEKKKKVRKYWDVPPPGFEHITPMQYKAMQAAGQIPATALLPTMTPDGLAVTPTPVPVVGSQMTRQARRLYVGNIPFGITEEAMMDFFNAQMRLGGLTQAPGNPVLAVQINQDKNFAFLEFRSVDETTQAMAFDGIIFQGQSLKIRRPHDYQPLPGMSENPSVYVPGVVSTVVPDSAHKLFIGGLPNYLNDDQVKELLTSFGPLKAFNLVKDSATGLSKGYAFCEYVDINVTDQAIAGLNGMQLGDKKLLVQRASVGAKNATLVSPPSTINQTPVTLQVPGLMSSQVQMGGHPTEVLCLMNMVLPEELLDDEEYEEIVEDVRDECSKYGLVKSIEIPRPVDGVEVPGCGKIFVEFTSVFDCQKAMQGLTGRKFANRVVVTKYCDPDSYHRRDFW
B1: protein disulfide-isomerase A6, human; sequence looked up; chain LYSSSDDVIELTPSNFNREVIQSDSLWLVEFYAPWCGHCQRLTPEWKKAATALKDVVKVGAVDADKHHSLGGQYGVQGFPTIKIFGSNKNRPEDYQGGRTGEAIVDAALSALRQLVKDRLGGRSGGYSSGKQGRSDSSSKKDVIELTDDSFDKNVLDSEDVWMVEFYAPWCGHCKNLEPEWAAAASEVKEQTKGKVKLAAVDATVNQVLASRYGIRGFPTIKIFQKGESPVDYDGGRTRSDIVSRALDLFSDNAPPPELLEIINEDIAKRTCEEHQLCVVAVLPHILDTGAAGRNSYLEVLLKLADKYKKKMWGWLWTEAGAQSELETALGIGGFGYPAMAAINARKMKFALLKGSFSEQGINEFLRELSFGRGSTAPVGGGAFPTIVEREPWDGRDGELPVEDDIDLSDVELDDLGKDEL
B2: human EEF1D; sequence looked up; chain ATNFLAHEKIWFDKFKYDDAERRFYEQMNGPVAGASRQENGASVILRDIARARENIQKSLAGSSGPGASSGTSGDHGELVVRIASLEVENQSLRGVVQELQQAISKLEARLNVLEKSSPGHRATAPQTQHVSPMRQVEPPAKKPATPAEDDEDDDIDLFGSDNEEEDKEAAQLREERLRQYAEKKAKKPALVAKSSILLDVKPWDDETDMAQLEACVRSIQLDGLVWGASKLVPVGYGIRKLQIQCVVEDDKVGTDLLEEEITKFEEHVQSVDIAAFNKI
B3: human histone acetyltransferase 1; sequence looked up; chain AGFGAMEKFLVEYKSAVEKKLAEYKCNTNTAIELKLVRFPEDLENDIRTFFPEYTHQLFGDDETAFGYKGLKILLYYIAGSLSTMFRVEYASKVDENFDCVEADDVEGKIRQIIPPGFCTNTNDFLSLLEKEVDFKPFGTLLHTYSVLSPTGGENFTFQIYKADMTCRGFREYHERLQTFLMWFIETASFIDVDDERWHYFLVFEKYNKDGATLFATVGYMTVYNYYVYPDKTRPRVSQMLILTPFQGQGHGAQLLETVHRYYTEFPTVLDITAEDPSKSYVKLRDFVLVKLCQDLPCFSREKLMQGFNEDMVIEAQQKFKINKQHARRVYEILRLLVTDMSDAEQYRSYRLDIKRRLISPYKKKQRDLAKMRKCLRPEELTNQMNQIEISMQHEQLEESFQELVEDYRRVIERLAQE

Under “log2 fold change”, `B1` is recorded as -0.47 (CYB5R4 knockout human cells; PP4 interaction, 3xFLAG-PP4C IP-MS; concentration not given; baseline: CYB5R4 KO over parental).
`cotadutide` gave a metabolite level of 1.03 ± 0.03 scaled intensity (metabolomics, refers to: hepatic histidine; ob/ob mice on AMLN diet, NASH model, liver; dose not given).
`B2 (human EEF1D)` — result for “log2 fold change”: -2.95 (PP6C (human); co-immunoprecipitation, IP-MS; CYB5R4 knockout cells; concentration not given; baseline: CYB5R4 knockout over parental).
For `milbemycin oxime`, the OD600 was 0.025 and 0.026 (Saccharomyces cerevisiae; cell growth; Pdr5 deleted, Cdr1 overexpressed; 2^-2.966 µg/mL, together with: fluconazole 10 µg/mL).
`CTTGAAGGGGGGCTATAAAAGGGGGTGGGGGCGCGTCAAGTCAATCGGTCC (dsDNA; 5'-amino-C6 primer)` has a Kd of 0.32 ± 0.06 nM (SPT15 full length assumed; array; double-stranded DNA, one strand shown; TBP alone).
The binding intensity of `EKPIDSETKM` is reported as 0.0855 (construct, MBP fusion, human SCRIB, PDZ 3-4; automated holdup; peptide, purified PDZ protein; concentration not given, unit not given; baseline: biotin control resin, higher = stronger binding).
`CUUUCUCUU (ssRNA)` has a Kd of 900 nM (U2AF2; sequencing of bound RNA; RNA; motif only).
For `B3`, “log2 fold change” read -0.91 (PP6C (human); co-immunoprecipitation, IP-MS; CYB5R4 knockout cells; concentration not given; baseline: CYB5R4 knockout over parental).
The MIC of `colistin` is reported as ≤ 0.5 µg/mL (Escherichia coli; broth microdilution; clinical isolate RKI-No_97/15).
`CTCAGGAATTCCTATGAAGTAATGTGGAGCTCAGTTCAAGTCAATCGGTCC (dsDNA; 5'-amino-C6 primer)` gave a Kd of 2.62 ± 0.28 nM (SPT15 full length assumed; array; double-stranded DNA, one strand shown; TBP alone).
`QDEKVKESYV` has a binding intensity of 0.545 (construct, MBP fusion, human SCRIB, PDZ 3-4; automated holdup; peptide, crude extract; concentration not given, uncorrected, unit not given; baseline: biotin control resin, higher = stronger binding).
`AUUCUUUUC (ssRNA)` gave a Kd of 2250 nM (U2AF2; sequencing of bound RNA; RNA; motif only).
With `colistin` the MIC was 0.5 µg/mL (Pseudomonas aeruginosa; PA2011 PER-producing isolate).
With `MTVCNASQRQAHAQATAVSL` the selectivity ratio was 0.8 ± 0.38 (H441; phage binding; peptide; baseline: targeting over control phage).
Under “log2 fold change”, `human desmoplakin` is recorded as 0.7 (PP6C (human); co-immunoprecipitation, IP-MS; CYB5R4 knockout cells; concentration not given; baseline: CYB5R4 knockout over parental).
`SVWLRKETRV` has a binding intensity of 0.403 (construct, MBP fusion, human SCRIB, PDZ 3-4; automated holdup; peptide, purified PDZ protein; concentration not given, unit not given; baseline: biotin control resin, higher = stronger binding).
With `Peginesatide` the mRNA level was 4.2 fold (UT7/EPO; RT-qPCR, refers to: SOCS1; concentration not given, 90 min, normalized to HPRT1; baseline: vehicle).

For quick reference, copied from above:
Under “log2 fold change”, `human desmoplakin` is recorded as 0.7 (PP6C (human); co-immunoprecipitation, IP-MS; CYB5R4 knockout cells; concentration not given; baseline: CYB5R4 knockout over parental).
For `B3`, “log2 fold change” read -0.91 (PP6C (human); co-immunoprecipitation, IP-MS; CYB5R4 knockout cells; concentration not given; baseline: CYB5R4 knockout over parental).
